Published values of several laboratories.
Compare with care: the assays were run in different laboratories.
CDK2 with cyclin A: Cyclin-dependent kinase 2, with cyclin A (CDK2, Homo sapiens, UniProt P24941)
CDK2 with cyclin O: Cyclin-dependent kinase 2, with cyclin O (CDK2, Homo sapiens, UniProt P24941)
CDK2 with cyclin E: Cyclin-dependent kinase 2, with cyclin E (CDK2, Homo sapiens, UniProt P24941)

The inhibition of `CN1CC[C@@H](COc2cnc(C#N)cc2-c2ccn3nc(NC(=O)C4CC4)cc3c2)C1` is reported as 11% (CDK2 with cyclin A; enzyme activity, inhibitor; 1 µM).
With `CN1CCN(Cc2ccc(-c3ccc(CO[C@H]4CCC[C@@H]4NC(=O)c4cc(-c5cnn(C)c5)cnc4N)cc3)cc2)CC1` the inhibition was 6% (CDK2 with cyclin O; enzyme activity, inhibitor; 0.1 µM).
For `C=CC(=O)N1Cc2nc(-c3cc(-c4cc(Cl)cnc4Cl)c(F)cc3F)n(-c3ccncn3)c2C1`, the inhibition was -7.1% (CDK2 with cyclin O; cell-free assay, inhibitor; 1 µM).
The inhibition of `COc1ccc(C(=O)/C=C/c2ccccc2-c2c[nH]c3ccc(C#N)cc23)c(O)c1` is reported as 13% (CDK2 with cyclin E; enzyme activity, inhibitor; 20 µM).
The inhibition of `Cc1cccc(O[C@H]2CCC[C@@H](C(C)CNCc3ccncc3)C2)c1` (relative stereo) is reported as 2% (CDK2 with cyclin E; kinase activity, kinome panel screening; 1 µM).
With `C=CC(=O)Nc1cccc(-c2cnc3[nH]cc(C(=O)NC(C)(C)C)c3n2)c1` the inhibition was 21% (CDK2 with cyclin E; kinase activity; 0.1 µM).
`NC(=O)C[C@H]1CCc2sc3ncnc(O[C@H]4CC[C@H](N5CCOCC5)CC4)c3c21` gave an inhibition of 35% (Cyclin-dependent kinase 2, with cyclin A1 (CDK2, Homo sapiens, UniProt P24941); enzyme activity, inhibitor; 10 µM).
With `Cc1[nH]nc2c1N=C(c1ccccc1Cl)c1cnc(N3CCOCC3)cc1N2` the inhibition was 7.9% (CDK2 (Homo sapiens, UniProt P24941); enzyme activity, inhibitor; 0.5 µM).
`NC(=O)[C@@H](O)C[C@H]1CCc2sc3ncnc(O[C@H]4CC[C@H](N5CCOCC5)CC4)c3c21` gave an inhibition of 36% (CDK2 with cyclin A; enzyme activity, inhibitor; 10 µM).
The inhibition of `CCn1cc(C(=O)O)c(=O)c2c(N)c(F)c(NC3CCCCC3)cc21` is reported as 20.1% (Cyclin-dependent kinase 2, with cyclin E1 (CDK2, Homo sapiens, UniProt P24941); kinase activity; 0.1 µM, added: ATP at Km).

Repeated from above:
The inhibition of `CCn1cc(C(=O)O)c(=O)c2c(N)c(F)c(NC3CCCCC3)cc21` is reported as 20.1% (Cyclin-dependent kinase 2, with cyclin E1 (CDK2, Homo sapiens, UniProt P24941); kinase activity; 0.1 µM, added: ATP at Km).
